{"data": "Experimental data from different studies", "note": "Each numbered part is a random draw from the data of one study; scales do not carry over between parts. Values joined by “and” are separate records of one study, mostly repeats; a detail may differ.", "UniProt P9WI81, sequence (whole entry, looked up)": "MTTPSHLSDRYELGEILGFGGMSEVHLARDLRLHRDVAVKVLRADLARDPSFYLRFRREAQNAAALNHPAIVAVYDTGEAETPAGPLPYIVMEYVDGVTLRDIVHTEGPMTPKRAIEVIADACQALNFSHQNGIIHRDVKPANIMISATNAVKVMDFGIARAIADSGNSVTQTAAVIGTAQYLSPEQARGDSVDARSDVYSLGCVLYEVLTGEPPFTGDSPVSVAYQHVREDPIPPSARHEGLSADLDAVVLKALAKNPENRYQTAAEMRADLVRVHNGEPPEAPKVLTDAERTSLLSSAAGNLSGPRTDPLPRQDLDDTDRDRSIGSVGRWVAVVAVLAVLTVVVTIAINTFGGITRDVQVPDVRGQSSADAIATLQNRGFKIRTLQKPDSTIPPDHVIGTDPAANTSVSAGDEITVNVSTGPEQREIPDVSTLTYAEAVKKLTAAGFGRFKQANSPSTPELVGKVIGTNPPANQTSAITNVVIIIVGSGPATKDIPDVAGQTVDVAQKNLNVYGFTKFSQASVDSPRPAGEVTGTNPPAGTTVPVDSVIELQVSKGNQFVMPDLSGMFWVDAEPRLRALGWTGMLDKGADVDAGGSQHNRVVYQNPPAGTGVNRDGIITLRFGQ"}
{"data": "Set 1", "Structure (SMILES)": "CCCCC[C@@H](O)CC(=O)N[C@@H]1C(=O)N[C@H](CCCNC(=N)N)C(=O)N[C@@H](CO)C(=O)NCC(=O)N(C)[C@H](Cc2ccccc2)C(=O)N[C@@H](CC(C)C)C(=O)N[C@H](CCCNC(=N)N)C(=O)N[C@@H](CCC(=O)O)C(=O)N[C@H](CCC(N)=O)C(=O)N[C@H](Cc2c[nH]c3ccccc23)C(=O)N[C@@H]([C@@H](C)CC)C(=O)N[C@@H]([C@@H](C)O)C(=O)O[C@@H]1C", "organism": "Staphylococcus aureus", "strain": "USA300", "tested at": "2 x MIC"}
{"setting": "120 min", "viable cells": "600 CFU/mL and 300 CFU/mL and 500 CFU/mL"}
{"setting": "60 min", "viable cells": "500 CFU/mL and 300 CFU/mL"}
{"setting": "240 min", "viable cells": "100 CFU/mL and 200 CFU/mL"}
{"setting": "360 min", "viable cells": "200 CFU/mL and 300 CFU/mL"}
{"setting": "0 min", "viable cells": "3.7e+08 CFU/mL and 4.8e+08 CFU/mL and 4.2e+08 CFU/mL"}
{"data": "Set 2", "Compound": "C=CCN1C(=O)C(O)(C(=O)O)Oc2cc(F)ccc21 (stereo not drawn)", "organism": "Arabidopsis thaliana", "strain": "Col-0", "notes": "seed germination"}
{"setting": "12.5 µg/mL", "root length": "1.12 cm"}
{"setting": "25 µg/mL", "root length": "1.04 cm"}
{"setting": "3.125 µg/mL", "root length": "1.12 cm"}
{"setting": "50 µg/mL", "root length": "0.934 cm"}
{"setting": "100 µg/mL", "root length": "0.623 cm"}
{"setting": "6.25 µg/mL", "root length": "1.08 cm"}
{"data": "Set 3", "Compound": "Cn1cc(-c2cccc(CN3CCC4(CC3)COc3c4ccc4c3CN([C@H]3CCC(=O)NC3=O)C4=O)c2)cn1", "species": "Crbn I391V mouse, MC-38 tumour"}
{"setting": "oral, daily, 30 mg/kg, day 39, anti-PD1 combination study", "tumour volume": "2110 mm3"}
{"setting": "30 mg/kg, day 29, added: anti-LAG3 antibody 10 mg/kg weekly", "tumour volume": "895 mm3 and 2360 mm3 and 718 mm3 and 2010 mm3 and 102 mm3"}
{"setting": "30 mg/kg, day 36, added: anti-LAG3 antibody 10 mg/kg weekly", "tumour volume": "2400 mm3 and 228 mm3 and 2040 mm3"}
{"setting": "30 mg/kg, day 50, added: anti-LAG3 antibody 10 mg/kg weekly", "tumour volume": "2030 mm3"}
{"setting": "oral, daily, 30 mg/kg, day 19, anti-PD1 combination study", "tumour volume": "415 mm3 and 1200 mm3 and 485 mm3 and 230 mm3 and 436 mm3"}
{"setting": "oral, daily, 30 mg/kg, day 15, anti-PD1 combination study", "tumour volume": "301 mm3 and 322 mm3 and 508 mm3 and 566 mm3 and 897 mm3"}
{"setting": "30 mg/kg, day 19, added: anti-LAG3 antibody 10 mg/kg weekly", "tumour volume": "48.7 mm3 and 562 mm3 and 201 mm3 and 513 mm3 and 1040 mm3 and 979 mm3 and 1080 mm3 and 318 mm3"}
{"setting": "oral, 30 mg/kg once daily, day 10", "tumour volume": "195 mm3 and 286 mm3 and 70.9 mm3 and 162 mm3 and 198 mm3"}
{"setting": "oral, daily, 30 mg/kg, day 36, anti-PD1 combination study", "tumour volume": "2180 mm3 and 2640 mm3 and 1230 mm3"}
{"data": "Single results of other studies"}
{"Structure (SMILES)": "CC[C@@]1(c2cccc(C(F)(F)F)c2)C2=C(Nc3n[nH]cc31)[C@H](F)C(C)(C)CC2=O (single isomer, unassigned)", "target": "Serine/threonine-protein kinase PknB (pknB, Mycobacterium tuberculosis, UniProt P9WI81)", "assay": "binding, competition with immobilised ligand", "setting": "1 µM", "measurement": "remaining binding", "value": "100%"}
